Experimental data of several laboratories.
Compare with care: the assays were run in different laboratories. “And” joins repeats or separate records; there may be more than shown.

Compound = O=C(O)CN1CCN(CC(=O)O)CCN(CC(O)CN(CC(O)CN2CCN(CC(=O)O)CCN(CC(=O)O)CCN(CC(=O)O)CC2)C[C@H](O)[C@@H](O)[C@H](O)[C@H](O)CO)CCN(CC(=O)O)CC1 (some centres unmarked); assay = pH-potentiometry, spectrophotometry, refers to: CuHL; conditions = 25 °C, 0.15 M NaCl; endpoint = log K; result = 9.15
Compound = CCOc1cc(CN2CCCC(CNC(=O)c3ccc(F)cc3)C2)ccc1OC (centres unmarked); tested on = Trypanosoma cruzi; assay = reporter mRNA translation, inhibitor, refers to: Renilla luciferase mRNA; system = cell-free extract; conditions = concentration not given, test 2; how to read = relative to: positive over negative control; endpoint = translation activity; result = 108%
Compound = CC1Cc2ccccc2N1C(=O)CN1CCN(Cc2ccccc2)CC1 (centres unmarked); system = female NMRI mice, whole blood; conditions = intraperitoneal, 10 mg/kg free base, 15 min; endpoint = blood concentration; result = 197 ng/mL
Compound = CC(C)(O)c1ncc([S@](N)(=O)=NC(=O)Nc2c3c(cc4c2CCC4)CCC3)s1; system = healthy human; conditions = oral, 30 mg single dose, capsule formulation; endpoint = total adverse events; result = 83%
Compound = CC(C)[C@H](NC(=O)[C@H](Cc1c[nH]c2ccccc12)NC(=O)[C@H](CCCNC(=N)N)NC(=O)[C@H](CCCNC(=N)N)NC(=O)[C@@H](NC(=O)[C@@H](NC(=O)[C@H](CCCNC(=N)N)NC(=O)[C@@H](NC(=O)[C@@H](NC(=O)[C@H](CCCNC(=N)N)NC(=O)[C@H](CCCNC(=N)N)NC(=O)[C@@H](NC(=O)[C@H](Cc1c[nH]c2ccccc12)NC(=O)[C@H](CCCNC(=N)N)NC(=O)[C@H](CCCNC(=N)N)NC(=O)[C@@H](NC(=O)[C@H](CCCNC(=N)N)NC(=O)[C@H](CCCNC(=N)N)NC(=O)[C@@H](NC(=O)[C@H](Cc1c[nH]c2ccccc12)NC(=O)[C@H](CCCNC(=N)N)NC(=O)[C@@H](N)CCCNC(=N)N)C(C)C)C(C)C)C(C)C)C(C)C)C(C)C)C(C)C)C(C)C)C(=O)N[C@@H](CCCNC(=N)N)C(=O)N[C@@H](CCCNC(=N)N)C(=O)O; system = CD1 mouse, urine; conditions = intravenous, 15 mg/kg, 16 h, [14C]-labelled compound; endpoint = creatinine; result = 6.7 mg/dL
Compound = CC[C@H](C)[C@H](NC(=O)[C@H](CCCCN)NC(=O)[C@H](CCC(=O)O)NC(=O)[C@H](CO)NC(=O)[C@H](Cc1ccccc1)NC(=O)[C@H](CC(C)C)NC(=O)[C@H](CCC(N)=O)NC(=O)[C@H](CO)NC(=O)[C@H](C)NC(=O)[C@H](CCCCN)NC(=O)[C@H](Cc1c[nH]cn1)NC(=O)[C@H](Cc1c[nH]c2ccccc12)NC(=O)[C@H](CCC(N)=O)NC(=O)[C@H](CCCCN)NC(=O)[C@H](CCCCN)NC(=O)[C@H](CC(C)C)NC(=O)CNC(=O)[C@H](C)NC(=O)[C@@H](NC(=O)[C@H](CO)NC(=O)[C@@H](N)CCSC)C(C)C)C(=O)N[C@@H](CO)C(=O)NCC(=O)N[C@@H](C)C(N)=O; assay = circular dichroism titration; system = 100% DOPS liposomes; conditions = 50 µM, pH 7.4, 20 °C; endpoint = ΔG of binding; result = -7.5 kcal/mol
Compound = COC(=O)c1ccc(CN2CCCC(CCC(=O)NCc3ccc(C)o3)C2)cc1 (centres unmarked); tested on = Trypanosoma cruzi; assay = reporter mRNA translation, inhibitor, refers to: capped polyadenylated Renilla luciferase mRNA; system = cell-free extract; conditions = concentration not given; how to read = relative to: positive over negative control; endpoint = translation activity; result = 108% and 106% and 93.2% and 111%
Compound = CC[C@H](C)[C@H](NC(=O)[C@H](CCCCN)NC(=O)[C@H](CCC(=O)O)NC(=O)[C@H](CCCCN)NC(=O)[C@H](CC(C)C)NC(=O)[C@H](C)NC(=O)[C@H](C)NC(=O)[C@@H](NC(=O)[C@H](CCCCN)NC(=O)[C@@H]1CSCc2ccccc2CSC[C@H](NC(=O)[C@@H](NC(=O)[C@H](CCCCN)NC(C)=O)[C@@H](C)CC)C(=O)N[C@@H](C)C(=O)N[C@@H](CC(C)C)C(=O)N[C@@H](CCCCN)C(=O)N1)[C@@H](C)CC)C(=O)N[C@@H](C)C(=O)N[C@@H](C)C(=O)N[C@@H](CC(C)C)C(=O)N[C@@H](CCCCN)C(=O)N[C@@H](CCC(=O)O)C(=O)NCC(=O)N[C@@H](Cc1c[nH]c2ccccc12)C(N)=O; assay = tryptophan fluorescence titration; system = DOPC/DOPE/cholesterol 2:1:1 liposomes in PBS; endpoint = ΔG of membrane partitioning; result = -7.3 kcal/mol
Compound = CN(O)C(=O)CCC(=O)NCCCN(CCCCN(CCCNC(=O)CCC(=O)N(C)O)C(=O)CCC(=O)N(C)O)C(=O)CCC(=O)N(C)O.[89Zr]; system = mouse, kidney; conditions = 4 h; endpoint = tracer uptake; result = 2.44 %ID/g
Compound = CN1CCC[C@]1(C)/C=C/S(=O)(=O)NC(=O)Nc1c2c(cc3c1CCC3)CCC2; assay = refers to: gastrointestinal disorders; system = human; conditions = oral, 100 mg twice daily, 14 days, multiple ascending dose; endpoint = subjects with adverse event; result = 0%
Compound = Cc1c(Cc2cc(F)cc(OC(C)(C)C(=O)O)c2)c2ccc(C(=O)N[C@@H](C)c3cc(F)cc(C(C)(C)C)c3)cc2n1CC1CCC1; system = human liver microsomes; conditions = 1 µM, added: microsomes 1 mg/mL; endpoint = half-life; result = 46 min
Compound = CC[C@H](C)[C@@H](C(=O)N[C@@H](CC(C)C)C(=O)N[C@@H](CO)C(=O)N[C@@H](CO)C(=O)N[C@H](C(=O)N[C@@H](CCC(=O)O)C(=O)N[C@H](C(=O)NCC(=O)N[C@@H](CO)C(=O)N[C@@H](CC(N)=O)C(=O)N[C@H](C(=O)N1C[C@H](O)C[C@H]1C(N)=O)[C@@H](C)O)C(C)C)[C@@H](C)O)N(C)C(=O)[C@H](C)NC(=O)CN(C)C(=O)[C@H](Cc1ccccc1)NC(=O)[C@H](CO)NC(=O)[C@H](CO)NC(=O)[C@H](CCCNC(=N)N)NC(=O)[C@H](CCC(N)=O)NC(=O)[C@H](CC(C)C)NC(=O)[C@H](Cc1ccccc1)NC(=O)[C@H](CCCC(=O)O)NC(=O)[C@H](C)NC(=O)[C@H](CC(C)C)NC(=O)[C@H](CCCNC(=N)N)NC(=O)[C@H](CCC(=O)O)NC(=O)[C@@H](NC(=O)[C@H](C)NC(=O)[C@@H]1CCCCNC(=O)C[C@H](NC(=O)[C@H](CCCNC(=N)N)NC(=O)CC[C@H](NC(=O)CCCCCCCCCCCCCCCCCCC(=O)O)C(=O)O)C(=O)NCC(=O)N[C@@H]([C@@H](C)O)C(=O)N[C@@H](C)C(=O)N[C@@H]([C@@H](C)O)C(=O)N1)[C@@H](C)O; assay = SEC; system = formulation, phosphate buffer, propylene glycol, mannitol, NaCl; conditions = 1 weeks, pH 6.1, 40 °C; endpoint = covalent oligomers; result = ≤ 0.2%
Compound = COCCN(C)CC(=O)NC(Cc1ccc(-c2ccccc2)cc1)B(O)O (centres unmarked); system = male Sprague-Dawley rats, plasma; conditions = intravenous, 1 mg/kg, citrate ester; endpoint = tmax; result = 4.8 min
Compound = CC(C)OCCOCc1ccc(OCC(O)CN(N=O)C(C)C)cc1 (centres unmarked); assay = duplex sequencing, refers to: mutation frequency; system = NMRI mouse, bone marrow; conditions = oral, 4 weeks; endpoint = lowest dose significant mutation increase; result = 29.9 mg/kg
Compound = COc1cc(N2CCN(C(=O)C3CCCN3)CC2)ccc1Nc1ncc(Cl)c(Nc2ccccc2P(C)(C)=O)n1 (centres unmarked); system = nude mice, NCI-H3122 xenograft; conditions = oral, dose not given, day 9; endpoint = body weight; result = 23.5 g and 24.8 g and 24.3 g and 22.2 g and 23 g
Compound = O=C(O)CN1CCN(CC(=O)O)CCN(Cc2cccc(P(=O)(O)O)n2)CC1; assay = potentiometric titration; conditions = aliphatic carboxylate deprotonation; endpoint = log Ka; result = 2.42
Compound = CN[C@H](CC(C)C)C(=O)N[C@H]1C(=O)N[C@@H](CC(N)=O)C(=O)N[C@H]2C(=O)N[C@H]3C(=O)N[C@H](C(=O)N[C@H](C(=O)N[C@H](CCCNC(=N)N)C(N)=O)c4cc(O)cc(O)c4-c4cc3ccc4O)[C@H](O)c3ccc(c(Cl)c3)Oc3cc2cc(c3O[C@@H]2O[C@H](CO)[C@@H](O)[C@H](O)[C@H]2O[C@H]2C[C@](C)(N)[C@H](O)[C@H](C)O2)Oc2ccc(cc2Cl)[C@H]1O; system = female CD-1 mouse, plasma; conditions = intravenous, 15 mg/kg, single dose; endpoint = AUC; result = 24200 ng·h/mL

For quick reference, copied from above:
Compound = CC(C)OCCOCc1ccc(OCC(O)CN(N=O)C(C)C)cc1 (centres unmarked); assay = duplex sequencing, refers to: mutation frequency; system = NMRI mouse, bone marrow; conditions = oral, 4 weeks; endpoint = lowest dose significant mutation increase; result = 29.9 mg/kg
Compound = O=C(O)CN1CCN(CC(=O)O)CCN(CC(O)CN(CC(O)CN2CCN(CC(=O)O)CCN(CC(=O)O)CCN(CC(=O)O)CC2)C[C@H](O)[C@@H](O)[C@H](O)[C@H](O)CO)CCN(CC(=O)O)CC1 (some centres unmarked); assay = pH-potentiometry, spectrophotometry, refers to: CuHL; conditions = 25 °C, 0.15 M NaCl; endpoint = log K; result = 9.15
